Assay results pooled from the literature.
Every numbered part comes from another study and shows a few of its results, in no order.
Sequence of UniProt P50750 (whole entry, looked up): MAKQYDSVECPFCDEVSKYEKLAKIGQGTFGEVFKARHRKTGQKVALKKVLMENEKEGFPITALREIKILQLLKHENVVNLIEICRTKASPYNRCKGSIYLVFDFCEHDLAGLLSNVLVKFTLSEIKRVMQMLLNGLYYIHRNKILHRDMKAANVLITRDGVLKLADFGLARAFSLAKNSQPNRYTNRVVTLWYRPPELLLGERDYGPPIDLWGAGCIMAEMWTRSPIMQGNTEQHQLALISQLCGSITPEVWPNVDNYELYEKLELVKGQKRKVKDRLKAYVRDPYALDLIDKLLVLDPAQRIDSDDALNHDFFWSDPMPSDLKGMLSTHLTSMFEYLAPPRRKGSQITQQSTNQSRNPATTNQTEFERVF
Sequence of UniProt Q13464 (whole entry, looked up): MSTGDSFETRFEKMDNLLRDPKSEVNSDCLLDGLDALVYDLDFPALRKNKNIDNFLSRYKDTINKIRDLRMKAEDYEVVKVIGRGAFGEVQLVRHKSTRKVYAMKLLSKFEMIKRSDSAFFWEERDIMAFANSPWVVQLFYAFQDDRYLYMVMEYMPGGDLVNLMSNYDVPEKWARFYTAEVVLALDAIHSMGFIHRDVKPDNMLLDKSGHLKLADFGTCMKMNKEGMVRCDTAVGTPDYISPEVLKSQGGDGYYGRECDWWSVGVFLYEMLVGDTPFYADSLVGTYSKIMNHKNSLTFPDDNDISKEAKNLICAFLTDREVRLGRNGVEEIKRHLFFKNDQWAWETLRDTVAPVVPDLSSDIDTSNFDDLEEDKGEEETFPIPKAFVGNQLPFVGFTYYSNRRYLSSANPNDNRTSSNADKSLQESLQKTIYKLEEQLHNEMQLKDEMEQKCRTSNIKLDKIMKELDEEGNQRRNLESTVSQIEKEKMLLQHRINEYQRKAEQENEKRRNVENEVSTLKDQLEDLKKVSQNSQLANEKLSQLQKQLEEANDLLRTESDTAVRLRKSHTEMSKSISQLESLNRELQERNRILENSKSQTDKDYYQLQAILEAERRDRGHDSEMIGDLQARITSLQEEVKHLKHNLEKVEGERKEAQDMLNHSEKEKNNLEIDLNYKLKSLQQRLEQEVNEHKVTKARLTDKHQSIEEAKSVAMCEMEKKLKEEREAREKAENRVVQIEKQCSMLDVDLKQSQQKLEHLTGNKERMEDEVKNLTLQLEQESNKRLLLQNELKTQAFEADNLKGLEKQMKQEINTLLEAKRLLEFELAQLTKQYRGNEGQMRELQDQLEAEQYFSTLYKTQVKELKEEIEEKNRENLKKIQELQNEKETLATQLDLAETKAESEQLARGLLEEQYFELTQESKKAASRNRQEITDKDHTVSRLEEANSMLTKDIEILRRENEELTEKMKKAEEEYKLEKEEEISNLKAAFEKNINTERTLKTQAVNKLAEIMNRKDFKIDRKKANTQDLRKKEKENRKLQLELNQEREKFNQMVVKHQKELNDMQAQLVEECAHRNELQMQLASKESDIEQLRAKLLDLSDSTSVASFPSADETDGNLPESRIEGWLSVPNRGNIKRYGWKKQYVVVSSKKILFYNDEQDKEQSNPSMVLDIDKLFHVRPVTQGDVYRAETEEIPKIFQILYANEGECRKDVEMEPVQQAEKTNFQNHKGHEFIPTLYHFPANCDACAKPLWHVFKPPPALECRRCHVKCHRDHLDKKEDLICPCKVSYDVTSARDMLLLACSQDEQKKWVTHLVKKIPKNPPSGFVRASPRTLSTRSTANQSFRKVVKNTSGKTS
Sequence of UniProt P08913 (whole entry, looked up): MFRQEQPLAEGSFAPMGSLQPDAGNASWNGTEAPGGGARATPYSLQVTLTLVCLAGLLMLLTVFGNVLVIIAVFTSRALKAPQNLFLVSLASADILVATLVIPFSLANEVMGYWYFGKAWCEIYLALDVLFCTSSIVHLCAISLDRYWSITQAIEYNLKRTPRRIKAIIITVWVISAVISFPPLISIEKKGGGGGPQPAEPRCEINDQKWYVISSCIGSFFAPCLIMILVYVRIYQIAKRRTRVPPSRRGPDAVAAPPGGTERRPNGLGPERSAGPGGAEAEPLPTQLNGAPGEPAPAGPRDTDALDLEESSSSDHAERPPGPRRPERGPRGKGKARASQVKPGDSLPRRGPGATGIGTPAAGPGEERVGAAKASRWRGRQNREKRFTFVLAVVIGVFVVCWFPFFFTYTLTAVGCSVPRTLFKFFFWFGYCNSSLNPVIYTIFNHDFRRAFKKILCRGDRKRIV
Sequence of UniProt O75676 (whole entry, looked up): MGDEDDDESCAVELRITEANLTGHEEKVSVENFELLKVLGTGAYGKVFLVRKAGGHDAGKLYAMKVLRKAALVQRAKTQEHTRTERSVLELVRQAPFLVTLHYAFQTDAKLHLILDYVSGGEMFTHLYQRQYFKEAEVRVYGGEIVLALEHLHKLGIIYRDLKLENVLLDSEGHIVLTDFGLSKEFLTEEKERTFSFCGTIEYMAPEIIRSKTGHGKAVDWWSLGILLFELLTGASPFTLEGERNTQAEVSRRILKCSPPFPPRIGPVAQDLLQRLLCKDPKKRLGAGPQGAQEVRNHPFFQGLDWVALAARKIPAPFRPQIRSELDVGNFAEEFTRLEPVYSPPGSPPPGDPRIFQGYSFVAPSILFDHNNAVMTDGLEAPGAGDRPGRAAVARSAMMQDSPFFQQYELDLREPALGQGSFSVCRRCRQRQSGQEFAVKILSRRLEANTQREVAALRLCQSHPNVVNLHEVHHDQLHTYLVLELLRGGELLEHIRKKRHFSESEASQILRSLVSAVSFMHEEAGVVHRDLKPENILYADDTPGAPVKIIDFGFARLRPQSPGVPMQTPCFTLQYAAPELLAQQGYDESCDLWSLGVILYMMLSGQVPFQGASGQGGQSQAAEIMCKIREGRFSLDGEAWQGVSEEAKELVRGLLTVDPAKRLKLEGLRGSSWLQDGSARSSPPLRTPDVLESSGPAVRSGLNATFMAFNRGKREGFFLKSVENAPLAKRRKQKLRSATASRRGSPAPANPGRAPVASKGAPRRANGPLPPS
Sequence of UniProt P42336 (whole entry, unmodified, looked up): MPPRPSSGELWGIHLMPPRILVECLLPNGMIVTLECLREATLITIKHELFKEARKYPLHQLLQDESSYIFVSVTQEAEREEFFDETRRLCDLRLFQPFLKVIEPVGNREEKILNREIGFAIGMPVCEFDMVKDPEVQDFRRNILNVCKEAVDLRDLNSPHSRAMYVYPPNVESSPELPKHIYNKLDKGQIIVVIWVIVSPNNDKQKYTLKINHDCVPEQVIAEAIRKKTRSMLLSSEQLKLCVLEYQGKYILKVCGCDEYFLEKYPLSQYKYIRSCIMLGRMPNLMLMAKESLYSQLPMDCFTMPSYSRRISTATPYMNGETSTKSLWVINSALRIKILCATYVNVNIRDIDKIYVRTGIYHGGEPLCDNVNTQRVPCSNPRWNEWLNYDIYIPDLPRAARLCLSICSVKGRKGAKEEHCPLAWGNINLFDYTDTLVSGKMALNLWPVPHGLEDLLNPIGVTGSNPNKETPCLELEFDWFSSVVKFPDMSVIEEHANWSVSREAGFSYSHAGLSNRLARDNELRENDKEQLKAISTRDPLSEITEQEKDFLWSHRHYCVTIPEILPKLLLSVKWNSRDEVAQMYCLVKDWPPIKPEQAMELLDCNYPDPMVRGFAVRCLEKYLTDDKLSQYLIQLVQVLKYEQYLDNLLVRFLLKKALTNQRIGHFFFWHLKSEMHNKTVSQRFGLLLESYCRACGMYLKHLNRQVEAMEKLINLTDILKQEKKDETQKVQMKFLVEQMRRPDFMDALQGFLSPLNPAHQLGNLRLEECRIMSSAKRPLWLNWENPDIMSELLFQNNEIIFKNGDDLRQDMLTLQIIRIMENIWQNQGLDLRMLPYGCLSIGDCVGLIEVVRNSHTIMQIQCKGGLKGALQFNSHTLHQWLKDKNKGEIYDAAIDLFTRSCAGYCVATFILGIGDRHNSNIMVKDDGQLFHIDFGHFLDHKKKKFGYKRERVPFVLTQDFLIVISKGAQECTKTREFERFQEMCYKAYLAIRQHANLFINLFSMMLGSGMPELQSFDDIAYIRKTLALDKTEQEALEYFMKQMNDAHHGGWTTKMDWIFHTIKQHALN
Sequence of UniProt Q9HAZ1 (whole entry, looked up): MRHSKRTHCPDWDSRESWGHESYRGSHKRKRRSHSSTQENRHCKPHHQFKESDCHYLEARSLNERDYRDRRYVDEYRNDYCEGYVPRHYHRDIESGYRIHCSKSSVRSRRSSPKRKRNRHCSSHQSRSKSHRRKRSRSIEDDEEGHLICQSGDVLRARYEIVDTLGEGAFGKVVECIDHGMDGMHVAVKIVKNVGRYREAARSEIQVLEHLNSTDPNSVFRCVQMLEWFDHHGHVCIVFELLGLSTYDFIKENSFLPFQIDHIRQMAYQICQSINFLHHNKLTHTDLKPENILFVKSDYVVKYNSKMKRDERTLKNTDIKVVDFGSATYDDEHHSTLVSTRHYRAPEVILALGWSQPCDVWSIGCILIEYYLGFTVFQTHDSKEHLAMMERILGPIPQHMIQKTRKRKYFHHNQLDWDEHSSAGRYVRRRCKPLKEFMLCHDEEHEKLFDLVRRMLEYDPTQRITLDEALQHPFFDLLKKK

Series 1 — concentration: 1 µM; measurement: remaining binding
SMILES: COc1ccc2[nH]c3c4[nH]c5ccc(OC)cc5c4c4c(c3c2c1)C(=O)NC4=O
target = CDK9 (Homo sapiens, UniProt P50750); method = competitive binding panel; baseline = vehicle; value = 58%
target = PIK3CA (Homo sapiens, UniProt P42336, H1047L); method = competitive binding panel; baseline = vehicle; value = 74%
target = Aurora kinase A (AURKA, Homo sapiens, UniProt O14965); method = competitive binding panel; baseline = vehicle; value = 57%
target = MAPK13 (Homo sapiens, UniProt O15264); method = competitive binding; notes = p38-delta; value = 86%
target = RPS6KA4 (Homo sapiens, UniProt O75676); method = competitive binding scan; notes = N-terminal kinase domain 1; value = 71%
target = Aurora kinase B (AURKB, Homo sapiens, UniProt Q96GD4); method = competitive binding panel; baseline = vehicle; value = 16%
target = MAP4K2 (Homo sapiens, UniProt Q12851); method = competitive binding panel; baseline = vehicle; value = 75%
target = KIT (Homo sapiens, UniProt P10721); method = competitive binding panel; baseline = vehicle; value = 24%
target = MAPKAPK2 (Homo sapiens, UniProt P49137); method = competitive binding panel; baseline = vehicle; value = 100%
target = SIK3 (Homo sapiens, UniProt Q9Y2K2); method = competitive binding; notes = QSK; value = 56%

Series 2 — observed: binding; method: radioligand binding; concentration: 10 µM; measurement: inhibition
Structure (SMILES): CCC(=O)N[C@@H]1CC[C@H](C(=O)N(C)c2ccc(-c3nc4ccccc4o3)cc2)C1
target = TMEM97 (Homo sapiens, UniProt Q5BJF2); value = 62.9%
target = SIGMAR1 (Homo sapiens, UniProt Q99720); value = 38.3%
target = HTR6 (Homo sapiens, UniProt P50406); value = 10.1%
target = DRD2 (Homo sapiens, UniProt P14416); value = 18.6%
target = HRH3 (Homo sapiens, UniProt Q9Y5N1); value = 1.65%
target = ADRB2 (Homo sapiens, UniProt P07550); value = 0.247%
target = ADRA2A (Homo sapiens, UniProt P08913); value = 11.2%

Series 3 — observed: enzyme activity; action: inhibitor; concentration: 10 µM; measurement: inhibition
Target: Calcium/calmodulin-dependent protein kinase type II subunit alpha (CAMK2A, Homo sapiens, UniProt Q9UQM7)
Sequence of UniProt Q9UQM7 (whole entry, looked up): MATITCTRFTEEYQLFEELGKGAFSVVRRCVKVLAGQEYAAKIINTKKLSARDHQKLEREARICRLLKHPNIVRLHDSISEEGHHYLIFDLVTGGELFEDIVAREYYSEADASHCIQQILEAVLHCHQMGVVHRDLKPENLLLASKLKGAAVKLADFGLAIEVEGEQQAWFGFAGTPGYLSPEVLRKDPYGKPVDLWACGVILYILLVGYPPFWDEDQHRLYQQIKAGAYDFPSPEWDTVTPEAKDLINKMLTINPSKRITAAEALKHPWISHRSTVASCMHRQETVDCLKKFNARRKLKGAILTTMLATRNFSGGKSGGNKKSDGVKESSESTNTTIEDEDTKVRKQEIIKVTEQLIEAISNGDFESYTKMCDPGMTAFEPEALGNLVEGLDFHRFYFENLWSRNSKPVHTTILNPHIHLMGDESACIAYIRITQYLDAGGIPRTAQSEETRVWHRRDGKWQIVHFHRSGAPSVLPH
Compound = COc1cc(CNC(=O)CCCCCCCC(C)C)ccc1O; value = -26%
Compound = COc1ccc(Cl)cc1C(=O)NCCc1ccc(S(=O)(=O)NC(=O)NC2CCCCC2)cc1; value = -2%
Compound = Nc1ccn([C@@H]2O[C@H](CO)[C@@H](O)[C@H]2O)c(=O)n1; value = 3%
Compound = Cc1cnc(C)cn1; value = -44%
Compound = CCC(=O)Oc1ccc2c(c1)CC[C@@H]1[C@@H]2CC[C@]2(C)[C@@H](OC(=O)CC)CC[C@@H]12; value = 4%
Compound = COc1cc([C@@H]2[C@H]3CO[C@@]4(O)C(=O)[C@@H]2C=C([C@H]2Oc5cc(O)cc(O)c5C(=O)[C@@H]2O)[C@@H]34)ccc1O; value = 7%
Compound = CS(=O)(=O)c1ccc(C2=C(c3ccccc3)C(=O)OC2)cc1; value = 3%
Compound = COc1ccc2[nH]c(=O)oc2c1; value = -1%
Compound = C[C@@H]1[C@H](O)[C@@H](C)/C=C/C=C/C=C/C=C/C=C/C=C/C=C/[C@H](O[C@@H]2O[C@H](C)[C@@H](O)[C@H](N)[C@@H]2O)C[C@@H]2O[C@](O)(C[C@@H](O)C[C@@H](O)[C@H](O)CC[C@@H](O)C[C@@H](O)CC(=O)O[C@H]1C)C[C@H](O)[C@H]2C(=O)O; value = -5%
Compound = OCc1cccc2ccccc12; value = 47%

Series 4 — SMILES: O=C(Nc1ccc(Cl)cc1)c1ccccc1NCc1ccncc1; observed: enzyme activity; action: inhibitor; concentration: 0.5 µM; baseline: control; measurement: remaining activity
target = AKT2 (Homo sapiens, UniProt P31751); value = 95.2%
target = Myosin-IIIb (MYO3B, Homo sapiens, UniProt Q8WXR4); value = 82%
target = MAPK1 (Homo sapiens, UniProt P28482); value = 94.7%
target = KDR (Homo sapiens, UniProt P35968); value = 28.2%
target = ROCK1 (Homo sapiens, UniProt Q13464); value = 98.4%
target = MARK2 (Homo sapiens, UniProt Q7KZI7); value = 92.7%
target = MAPK14 (Homo sapiens, UniProt Q16539); value = 128%
target = Cyclin-dependent kinase 9, with cyclin K (CDK9, Homo sapiens, UniProt P50750); value = 95.5%
target = MARK4 (Homo sapiens, UniProt Q96L34); value = 107%
target = GRK4 (Homo sapiens, UniProt P32298); value = 96.8%
target = CAMK4 (Homo sapiens, UniProt Q16566); value = 101%
target = PRKG2 (Homo sapiens, UniProt Q13237); value = 99.1%
target = TLK2 (Homo sapiens, UniProt Q86UE8); value = 97.3%
target = CLK4 (Homo sapiens, UniProt Q9HAZ1); value = 107%

Some of these lines once more (series 1):
target = Aurora kinase A (AURKA, Homo sapiens, UniProt O14965); method = competitive binding panel; baseline = vehicle; value = 57%
target = Aurora kinase B (AURKB, Homo sapiens, UniProt Q96GD4); method = competitive binding panel; baseline = vehicle; value = 16%
target = RPS6KA4 (Homo sapiens, UniProt O75676); method = competitive binding scan; notes = N-terminal kinase domain 1; value = 71%
